Published values of several laboratories.
Parts stem from different laboratories: compare values within a part only.
UniProt O15075, sequence (whole entry, looked up): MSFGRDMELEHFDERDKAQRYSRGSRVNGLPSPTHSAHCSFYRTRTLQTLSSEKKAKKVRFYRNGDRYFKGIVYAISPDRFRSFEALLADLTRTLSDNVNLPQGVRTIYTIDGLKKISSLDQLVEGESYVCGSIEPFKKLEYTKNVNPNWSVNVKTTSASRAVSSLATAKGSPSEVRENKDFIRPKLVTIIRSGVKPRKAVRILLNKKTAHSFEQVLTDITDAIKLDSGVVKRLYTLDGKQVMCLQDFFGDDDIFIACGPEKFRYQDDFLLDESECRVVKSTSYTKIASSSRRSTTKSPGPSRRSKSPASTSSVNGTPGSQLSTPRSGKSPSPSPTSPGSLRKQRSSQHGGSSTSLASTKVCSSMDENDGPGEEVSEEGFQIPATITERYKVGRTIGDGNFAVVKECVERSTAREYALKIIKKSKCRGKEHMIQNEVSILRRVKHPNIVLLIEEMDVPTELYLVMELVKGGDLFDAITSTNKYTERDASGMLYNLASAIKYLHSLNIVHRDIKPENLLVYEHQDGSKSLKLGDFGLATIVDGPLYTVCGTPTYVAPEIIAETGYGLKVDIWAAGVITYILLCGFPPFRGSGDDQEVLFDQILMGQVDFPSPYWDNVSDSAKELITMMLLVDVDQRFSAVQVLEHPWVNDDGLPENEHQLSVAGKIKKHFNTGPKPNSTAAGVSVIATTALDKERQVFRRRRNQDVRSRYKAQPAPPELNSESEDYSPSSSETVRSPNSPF
UniProt Q92772, sequence (whole entry, looked up): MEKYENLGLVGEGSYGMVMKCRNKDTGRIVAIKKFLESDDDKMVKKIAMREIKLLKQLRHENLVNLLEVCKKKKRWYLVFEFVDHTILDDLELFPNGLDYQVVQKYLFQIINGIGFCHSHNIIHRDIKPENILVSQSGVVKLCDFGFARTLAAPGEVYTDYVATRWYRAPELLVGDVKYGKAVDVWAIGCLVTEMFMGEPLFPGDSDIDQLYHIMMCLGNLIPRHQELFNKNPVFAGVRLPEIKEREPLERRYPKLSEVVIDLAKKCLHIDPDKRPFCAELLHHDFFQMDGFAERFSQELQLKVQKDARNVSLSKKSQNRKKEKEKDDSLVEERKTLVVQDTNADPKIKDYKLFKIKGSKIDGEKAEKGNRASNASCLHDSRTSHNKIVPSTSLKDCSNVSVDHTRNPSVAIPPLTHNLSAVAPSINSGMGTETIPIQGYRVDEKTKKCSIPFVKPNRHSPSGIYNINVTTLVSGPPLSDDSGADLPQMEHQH
UniProt Q9Y6E0, sequence (whole entry, looked up): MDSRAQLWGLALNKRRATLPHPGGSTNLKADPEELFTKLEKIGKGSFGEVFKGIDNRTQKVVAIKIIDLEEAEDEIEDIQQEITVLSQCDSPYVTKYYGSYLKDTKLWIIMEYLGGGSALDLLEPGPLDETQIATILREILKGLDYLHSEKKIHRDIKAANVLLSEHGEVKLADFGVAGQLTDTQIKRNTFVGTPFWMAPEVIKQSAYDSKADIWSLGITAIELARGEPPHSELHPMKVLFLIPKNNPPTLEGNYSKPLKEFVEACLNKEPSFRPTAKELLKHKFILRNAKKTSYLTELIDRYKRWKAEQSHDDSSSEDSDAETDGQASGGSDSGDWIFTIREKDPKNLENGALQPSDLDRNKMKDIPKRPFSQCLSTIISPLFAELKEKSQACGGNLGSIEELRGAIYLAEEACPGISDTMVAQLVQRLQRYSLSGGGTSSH
UniProt Q16539, sequence (whole entry, looked up): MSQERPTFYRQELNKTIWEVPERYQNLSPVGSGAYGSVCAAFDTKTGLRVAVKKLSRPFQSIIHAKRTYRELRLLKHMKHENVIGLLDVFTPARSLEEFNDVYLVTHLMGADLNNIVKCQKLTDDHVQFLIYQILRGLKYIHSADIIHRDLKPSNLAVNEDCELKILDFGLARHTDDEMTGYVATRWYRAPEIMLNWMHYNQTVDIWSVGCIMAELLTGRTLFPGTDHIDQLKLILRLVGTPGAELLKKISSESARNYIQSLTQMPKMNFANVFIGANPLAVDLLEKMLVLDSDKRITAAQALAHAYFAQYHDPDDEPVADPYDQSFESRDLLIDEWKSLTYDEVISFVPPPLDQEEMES

Set 1 — tested at: 1 µM
SMILES: Cc1nc(N2CC[C@@H](O)C2)ncc1-c1cc(C(F)(F)F)cc2[nH]ncc12
target	test	remaining binding [%]
LYN (Homo sapiens, UniProt P07948)	cell-free assay, competition with immobilised ligand	100
STK24 (Homo sapiens, UniProt Q9Y6E0)	binding, competition with immobilised ligand	100
CDK11A (Homo sapiens, UniProt Q9UQ88)	binding, competition with immobilised ligand	100
FLT3 (Homo sapiens, UniProt P36888, D835Y)	binding, competition with immobilised ligand	80
SIK1 (Homo sapiens, UniProt P57059)	competition binding	90
MAST1 (Homo sapiens, UniProt Q9Y2H9)	binding, competition with immobilised ligand	100
MINK1 (Homo sapiens, UniProt Q8N4C8)	binding, competition with immobilised ligand	61
DCLK1 (Homo sapiens, UniProt O15075)	binding, competition with immobilised ligand	100
NEK10 (Homo sapiens, UniProt Q6ZWH5)	binding, competition with immobilised ligand	96
FLT3 (Homo sapiens, UniProt P36888, D835V)	binding, competition with immobilised ligand	58
ACVR2A (Homo sapiens, UniProt P27037)	cell-free assay, competition with immobilised ligand	73
CAMK2B (Homo sapiens, UniProt Q13554)	cell-free assay, competition with immobilised ligand	100
EGFR (Homo sapiens, UniProt P00533, del747-752/P753S)	cell-free assay, competition with immobilised ligand	83
MAPK14 (Homo sapiens, UniProt Q16539)	binding, competition with immobilised ligand	100
EGFR (Homo sapiens, UniProt P00533, A750P/del747-749)	cell-free assay, competition with immobilised ligand	64
PKMYT1 (Homo sapiens, UniProt Q99640)	binding, competition with immobilised ligand	100
ACVR2B (Homo sapiens, UniProt Q13705)	binding, competition with immobilised ligand	79
ALK (Homo sapiens, UniProt Q9UM73, C1156Y)	cell-free assay, competition with immobilised ligand	100
FLT3 (Homo sapiens, UniProt P36888, K663Q)	binding, competition with immobilised ligand	89
CAMK2D (Homo sapiens, UniProt Q13557)	cell-free assay, competition with immobilised ligand	100
ERBB2 (Homo sapiens, UniProt P04626)	binding, competition with immobilised ligand	87
CDKL2 (Homo sapiens, UniProt Q92772)	binding, competition with immobilised ligand	100
TNK2 (Homo sapiens, UniProt Q07912)	binding, competition with immobilised ligand	90
NIM1K (Homo sapiens, UniProt Q8IY84)	binding, competition with immobilised ligand	71
CLK1 (Homo sapiens, UniProt P49759)	binding, competition with immobilised ligand	87

Set 2 — observed: thermal stability; method: DSF; tested at: 10 µM
SMILES: Oc1ccc(-c2nc(-c3ccncc3)c(-c3ccc(F)cc3)[nH]2)cc1
target	ΔTm
Bromodomain-containing protein 4, BD2 (BRD4, Homo sapiens, UniProt O60885)	0.83 °C
Transcription initiation factor TFIID subunit 1, BD1 (TAF1, Homo sapiens, UniProt P21675)	-0.08 °C
Protein polybromo-1, BD2 (PBRM1, Homo sapiens, UniProt Q86U86)	0.09 °C

Set 3 — observed: RNA clamping; method: fluorescence polarization; tested at: concentration not given; setting: mean of two replicates; with: FAM-labelled poly r(AG)8 RNA
Target: Eukaryotic initiation factor 4A-III (Homo sapiens, UniProt P38919)
UniProt P38919, sequence (whole entry, looked up): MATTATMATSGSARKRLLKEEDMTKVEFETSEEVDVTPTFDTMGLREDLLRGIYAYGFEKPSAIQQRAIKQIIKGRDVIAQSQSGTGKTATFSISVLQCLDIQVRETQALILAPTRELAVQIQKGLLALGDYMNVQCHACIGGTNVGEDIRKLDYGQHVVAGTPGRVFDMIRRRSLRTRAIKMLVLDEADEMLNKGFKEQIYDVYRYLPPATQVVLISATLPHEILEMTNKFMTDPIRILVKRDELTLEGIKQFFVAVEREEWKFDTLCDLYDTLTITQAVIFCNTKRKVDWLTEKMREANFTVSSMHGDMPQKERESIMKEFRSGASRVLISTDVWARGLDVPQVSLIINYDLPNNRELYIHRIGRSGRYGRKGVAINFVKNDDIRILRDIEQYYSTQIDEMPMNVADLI
SMILES	fluorescence polarization change
COC(=O)[C@@H]1[C@@H](c2ccccc2)[C@]2(c3ccc(OC)cc3)Oc3cc(OC)cc(OC)c3[C@@]23OC(c2cccc(OC)c2)=N[C@@]13O	-0.7 mP
COc1ccc([C@@]23Oc4cc(OC)cc(OC)c4[C@]2(O)[C@H](O)[C@H](CO)[C@H]3c2ccccc2)cc1	39.6 mP
CNCCOc1ccc2c(c1)O[C@@]1(c3ccc(Cl)cc3)[C@H](c3ccccc3)C[C@H](O)[C@@]21O	109 mP
COc1ccc([C@@]23Oc4cc(OC)cc(OC)c4[C@]2(O)C=C(C(=O)c2ccco2)[C@H]3c2ccccc2)cc1	24.9 mP

Set 4 — observed: enzyme activity; action: inhibitor; tested at: 77 µM; reference: untreated
Target: DNA polymerase theta, ATPase domain (POLQ, Homo sapiens, UniProt O75417)
UniProt O75417, sequence (whole entry, unmodified, looked up): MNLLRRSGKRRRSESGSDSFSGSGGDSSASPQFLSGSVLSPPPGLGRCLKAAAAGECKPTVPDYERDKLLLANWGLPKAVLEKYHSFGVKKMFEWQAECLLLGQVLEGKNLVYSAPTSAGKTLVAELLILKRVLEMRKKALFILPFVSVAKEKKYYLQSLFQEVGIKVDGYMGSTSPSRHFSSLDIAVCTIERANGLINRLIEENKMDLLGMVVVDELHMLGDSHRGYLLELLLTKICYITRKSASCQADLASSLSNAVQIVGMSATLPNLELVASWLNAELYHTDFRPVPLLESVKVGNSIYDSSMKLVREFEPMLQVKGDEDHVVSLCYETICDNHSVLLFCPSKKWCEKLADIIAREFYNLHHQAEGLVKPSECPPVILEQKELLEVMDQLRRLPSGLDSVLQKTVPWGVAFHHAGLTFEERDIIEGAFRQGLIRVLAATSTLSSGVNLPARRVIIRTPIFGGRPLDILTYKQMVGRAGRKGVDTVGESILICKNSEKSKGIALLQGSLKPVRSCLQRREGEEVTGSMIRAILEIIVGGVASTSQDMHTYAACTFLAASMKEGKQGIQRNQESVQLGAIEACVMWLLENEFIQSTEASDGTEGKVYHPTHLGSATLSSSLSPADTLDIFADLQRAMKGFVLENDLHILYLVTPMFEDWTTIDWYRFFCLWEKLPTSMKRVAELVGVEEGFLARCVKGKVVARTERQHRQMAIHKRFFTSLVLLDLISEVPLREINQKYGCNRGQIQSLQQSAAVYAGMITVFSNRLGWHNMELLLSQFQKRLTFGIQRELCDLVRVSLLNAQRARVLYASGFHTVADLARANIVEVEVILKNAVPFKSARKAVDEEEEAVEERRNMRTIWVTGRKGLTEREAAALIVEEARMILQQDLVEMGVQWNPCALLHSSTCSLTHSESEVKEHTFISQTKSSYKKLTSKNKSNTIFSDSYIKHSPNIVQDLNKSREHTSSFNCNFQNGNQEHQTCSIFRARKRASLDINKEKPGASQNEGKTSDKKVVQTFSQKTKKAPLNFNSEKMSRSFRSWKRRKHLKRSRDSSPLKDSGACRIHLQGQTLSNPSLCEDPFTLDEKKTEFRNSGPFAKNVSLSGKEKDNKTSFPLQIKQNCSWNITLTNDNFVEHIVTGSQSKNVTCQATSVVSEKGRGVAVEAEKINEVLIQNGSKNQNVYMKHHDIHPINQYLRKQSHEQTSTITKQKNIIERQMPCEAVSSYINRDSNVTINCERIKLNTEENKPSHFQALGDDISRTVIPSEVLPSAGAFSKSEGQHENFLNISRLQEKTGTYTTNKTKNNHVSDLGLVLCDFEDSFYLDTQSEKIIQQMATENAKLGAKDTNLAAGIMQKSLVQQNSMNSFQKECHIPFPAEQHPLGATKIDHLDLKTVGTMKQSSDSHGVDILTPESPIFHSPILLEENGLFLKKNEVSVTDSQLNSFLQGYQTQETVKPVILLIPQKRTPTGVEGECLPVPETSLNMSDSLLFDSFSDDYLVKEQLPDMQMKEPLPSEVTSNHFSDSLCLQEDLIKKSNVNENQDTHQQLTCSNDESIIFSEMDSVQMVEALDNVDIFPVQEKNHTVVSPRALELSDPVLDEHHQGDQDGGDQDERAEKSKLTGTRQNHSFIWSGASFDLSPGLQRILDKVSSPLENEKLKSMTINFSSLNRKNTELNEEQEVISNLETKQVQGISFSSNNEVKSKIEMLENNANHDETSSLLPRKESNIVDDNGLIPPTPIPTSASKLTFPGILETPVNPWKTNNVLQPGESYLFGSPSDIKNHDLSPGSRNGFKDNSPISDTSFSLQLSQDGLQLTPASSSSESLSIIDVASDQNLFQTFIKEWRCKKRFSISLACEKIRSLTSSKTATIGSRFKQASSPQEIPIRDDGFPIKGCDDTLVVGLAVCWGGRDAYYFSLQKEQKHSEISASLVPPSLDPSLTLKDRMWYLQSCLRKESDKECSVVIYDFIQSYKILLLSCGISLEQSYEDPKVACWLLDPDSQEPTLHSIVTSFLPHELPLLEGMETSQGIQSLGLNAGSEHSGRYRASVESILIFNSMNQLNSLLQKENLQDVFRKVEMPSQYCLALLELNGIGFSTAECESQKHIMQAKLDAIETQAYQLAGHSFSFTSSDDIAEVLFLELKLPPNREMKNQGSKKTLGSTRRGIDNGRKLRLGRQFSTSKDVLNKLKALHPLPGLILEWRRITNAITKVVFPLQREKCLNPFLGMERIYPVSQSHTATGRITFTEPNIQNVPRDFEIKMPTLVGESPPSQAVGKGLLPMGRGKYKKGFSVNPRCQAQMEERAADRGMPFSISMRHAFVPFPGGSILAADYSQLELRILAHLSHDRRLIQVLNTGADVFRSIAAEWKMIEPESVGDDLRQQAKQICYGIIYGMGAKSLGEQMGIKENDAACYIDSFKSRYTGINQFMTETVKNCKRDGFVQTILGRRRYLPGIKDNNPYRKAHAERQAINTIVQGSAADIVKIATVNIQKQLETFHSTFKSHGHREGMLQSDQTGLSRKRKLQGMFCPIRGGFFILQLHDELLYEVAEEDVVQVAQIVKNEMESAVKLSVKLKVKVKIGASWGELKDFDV
SMILES	remaining activity
Oc1c(Cl)cc(Cl)c2cccnc12	110%
Clc1ccc(C(Cn2ccnc2)OCc2ccsc2Cl)c(Cl)c1 (centres unmarked)	100%
CCN(CC)CCCC(C)Nc1ccnc2cc(Cl)ccc12 (centres unmarked)	101%
NC1CONC1=O (racemic)	102%
CC(/C=C1\SC(=S)N(CC(=O)O)C1=O)=C\c1ccccc1	72.2%
C[C@H](CCC(=O)NCC(=O)O)[C@H]1CC[C@H]2[C@@H]3[C@H](O)C[C@@H]4C[C@H](O)CC[C@]4(C)[C@H]3C[C@H](O)[C@]12C	96.6%
CNCC[C@@H](Oc1ccccc1C)c1ccccc1	102%

Set 5 — cell line: mouse MPNST tumor cells; method: high-content nuclear imaging; refers to: cell number; tested at: 10 µM; time: 12 h; setting: mean of 2 replicates; reference: plate mean; direction: higher = more cells
Structure (SMILES)	nuclei count
CC(=O)/N=c1/sc(S(N)(=O)=O)nn1C	0.017 z-score
CCCC1C(=O)N2C(N(C)C)=Nc3ccc(C)cc3N2C1=O (centres unmarked)	1.15 z-score
CCC(C)(C)c1ccc(CC(C)CN2C[C@@H](C)O[C@@H](C)C2)cc1 (some centres unmarked)	1.02 z-score
CC(=O)OC[C@H]1O[C@@H]([S-])[C@H](OC(C)=O)[C@@H](OC(C)=O)[C@@H]1OC(C)=O.CCP(CC)CC.[Au+]	-5.99 z-score
CC(C)(C)NC[C@H](O)COc1nsnc1N1CCOCC1	0.513 z-score
CCCC[P+](CCCC)(CCCC)Cc1ccc(NC(=O)C(Cc2ccc3ccccc3c2)NC(=NC2CCCCC2)NC2CCCCC2)cc1 (centres unmarked)	-2.87 z-score

Set 6 — tested at: 1 µM
SMILES: Cc1ccc(NC(=O)c2ccnc(C(F)(F)F)c2)cc1-c1cc(OCCO)nc(N2CCOCC2)c1
target	test	conditions	how to read	remaining binding [%]
MAPK13 (Homo sapiens, UniProt O15264)	competitive binding, scanMAX	p38-delta, 1000 nM		93
EIF2AK4 (Homo sapiens, UniProt Q9P2K8, S808G)	competitive binding panel		reference: vehicle	100
JAK3 (Homo sapiens, UniProt P52333)	competitive binding panel	JH1 catalytic domain	reference: vehicle	72
EPHA8 (Homo sapiens, UniProt P29322)	competitive binding panel		reference: vehicle	92
MAPKAPK5 (Homo sapiens, UniProt Q8IW41)	competitive binding panel		reference: vehicle	100

Some of these lines once more (set 1):
target	test	remaining binding [%]
DCLK1 (Homo sapiens, UniProt O15075)	binding, competition with immobilised ligand	100
NEK10 (Homo sapiens, UniProt Q6ZWH5)	binding, competition with immobilised ligand	96
FLT3 (Homo sapiens, UniProt P36888, D835V)	binding, competition with immobilised ligand	58
ACVR2A (Homo sapiens, UniProt P27037)	cell-free assay, competition with immobilised ligand	73
